Measurements of several laboratories.
Compare with care: the assays were run in different laboratories. Several values in a cell are separate wells, animals, samples, runs or records. In brackets after ≈: the same amount, converted by molar mass.

For `CC(C)OC(=O)[C@H](CCC(=O)C=[N+]=[N-])NC(=O)[C@H](Cc1c[nH]c2ccccc12)NC(=O)C12CCN(CC1)CC2`, the remaining compound was 1% (CES1-/- mouse GI tissue homogenate; 60 min).
Under “pCDK1 (Thr14) level”, `Cc1ccc(O)c(C)c1-c1cnc2[nH]c(-c3cnc(N4CCC(CN5CCN(c6ccc(C(=O)NC7CCC(=O)NC7=O)c(F)c6)CC5)CC4)nc3)cc2c1C#N` (racemic) is recorded as 17.4% and 25.3% (HCC1569; in-cell western, measured: CDK1 phospho-Thr14; 41.15 nM).
The MIC of `CCCCC[C@@H]1CC(=O)N[C@@H](C(C)C)C(=O)N[C@H](CCCNC(=N)N)C(=O)N[C@@H](CO)C(=O)NCC(=O)N(C)[C@H](Cc2ccccc2)C(=O)N[C@@H](CC(C)C)C(=O)N[C@H](CCCNC(=N)N)C(=O)N[C@@H](CC(N)=O)C(=O)N[C@H](C(C)C)C(=O)N[C@H](Cc2c[nH]c3ccccc23)C(=O)NCCCC(=O)O1` is reported as 4 µg/mL (≈ 2.75 µM) (Staphylococcus aureus; USA300; together with: ubiquinone 64 µg/mL).
For `Cn1cc(-c2cccc(CN3CCC4(CC3)COc3c4ccc4c3CN([C@H]3CCC(=O)NC3=O)C4=O)c2)cn1`, the efflux ratio was 4.47 (Caco-2; baseline: Papp B-A over Papp A-B).
`Cc1ccc(O)c(C)c1-c1cnc2[nH]c(-c3cnc(N4CCC(CN5CCN(c6ccc(N7CCC(=O)NC7=O)cc6F)CC5)CC4)nc3)cc2c1C#N` — result for “pCDK1 (Thr14) level”: 44.4% and 43.2% (HCC1569; in-cell western, measured: CDK1 phospho-Thr14; 111.11 nM).

Repeated from above:
For `Cn1cc(-c2cccc(CN3CCC4(CC3)COc3c4ccc4c3CN([C@H]3CCC(=O)NC3=O)C4=O)c2)cn1`, the efflux ratio was 4.47 (Caco-2; baseline: Papp B-A over Papp A-B).
